Published values collected from several papers.
Each line is one published result; not all experiments were run side by side. ± gives the spread as reported.

`CNC(C)Cc1ccc2c(c1)OCO2` (racemic) — result for “change in heart rate”: 16 (human; oral, 1.5 mg/kg, mean over session, unit not given; reference: pre-dose baseline).
With `N[C@]1(c2ccccc2Cl)CCC[C@H](O)C1=O` the dose-normalized Cmax was 760 ± 17 ng/mL per mg/kg (female CD-1 mice, plasma; intraperitoneal, 5 mg/kg).
With `Cc1ncc2n1-c1ccc(Cl)cc1C(c1ccccc1F)=NC2` the terminal half-life was 5.69 h (human CYP3A5*1/*3 and *1/*6, serum; geometric mean, together with: ketoconazole 200 mg).
With `CN1CC[C@@]23CCCC[C@@H]2[C@@H]1Cc1ccc(O)cc13` the AUC(0-inf) was 60.2 ± 26.8 ng·h/mL (Wistar rat, both sexes, plasma; oral, 5 mg/kg DEM, DEM 2 h after pretreatment, together with: TCE 400 mg/kg single pretreatment).
For `C[C@H]1CNCCc2ccc(Cl)cc21`, the plasma concentration was 0 ng/mL (male Sprague-Dawley rat, plasma; subcutaneous, 1 mg/kg, 0 h, given alone).
`N[C@]1(c2ccccc2Cl)C[C@@H](O)CCC1=O` has a dose-normalized Cmax of 184 ± 1.8 ng/mL per mg/kg (male CD-1 mice, plasma; intraperitoneal, 5 mg/kg).
For `COc1ccc2c(c1)[C@]13CCCC[C@@H]1[C@H](C2)N(C)CC3`, the CL/F was 667 mL/min/kg (Wistar rat, both sexes, plasma; oral, 5 mg/kg, 2 h after pretreatment, together with: single quinidine 2.5 mg/kg).
`N[C@@]1(c2ccccc2Cl)CC[C@H](O)CC1=O` has a dose-normalized Cmax of 180 ± 10.6 ng/mL per mg/kg (male CD-1 mice, plasma; intraperitoneal, 5 mg/kg).
Under “treatment-related adverse events”, `Cc1ncc(OC[C@@]2(c3cccc(F)c3)C[C@H]2C(=O)Nc2ccc(F)cn2)c(C)n1` is recorded as 21.4% (healthy human; 10 mg, together with: fluconazole).
`C=C1C[C@@H]2[C@H](CC[C@]3(C)C(=O)CC[C@@H]23)[C@@]2(C)C=CC(=O)C=C12`: “median plasma concentration” 8 ng/mL (LC-MS/MS; postmenopausal breast cancer women, plasma; oral, 25 mg/day, 2 h, AKR7A2 A142T heterozygous).

Excerpt of the above:
`CNC(C)Cc1ccc2c(c1)OCO2` (racemic) — result for “change in heart rate”: 16 (human; oral, 1.5 mg/kg, mean over session, unit not given; reference: pre-dose baseline).
